# Experimental data from different studies.
# Each numbered part is a random draw from the data of one study; scales do not carry over between parts.
# UniProt Q9UKI8, sequence (whole entry, looked up): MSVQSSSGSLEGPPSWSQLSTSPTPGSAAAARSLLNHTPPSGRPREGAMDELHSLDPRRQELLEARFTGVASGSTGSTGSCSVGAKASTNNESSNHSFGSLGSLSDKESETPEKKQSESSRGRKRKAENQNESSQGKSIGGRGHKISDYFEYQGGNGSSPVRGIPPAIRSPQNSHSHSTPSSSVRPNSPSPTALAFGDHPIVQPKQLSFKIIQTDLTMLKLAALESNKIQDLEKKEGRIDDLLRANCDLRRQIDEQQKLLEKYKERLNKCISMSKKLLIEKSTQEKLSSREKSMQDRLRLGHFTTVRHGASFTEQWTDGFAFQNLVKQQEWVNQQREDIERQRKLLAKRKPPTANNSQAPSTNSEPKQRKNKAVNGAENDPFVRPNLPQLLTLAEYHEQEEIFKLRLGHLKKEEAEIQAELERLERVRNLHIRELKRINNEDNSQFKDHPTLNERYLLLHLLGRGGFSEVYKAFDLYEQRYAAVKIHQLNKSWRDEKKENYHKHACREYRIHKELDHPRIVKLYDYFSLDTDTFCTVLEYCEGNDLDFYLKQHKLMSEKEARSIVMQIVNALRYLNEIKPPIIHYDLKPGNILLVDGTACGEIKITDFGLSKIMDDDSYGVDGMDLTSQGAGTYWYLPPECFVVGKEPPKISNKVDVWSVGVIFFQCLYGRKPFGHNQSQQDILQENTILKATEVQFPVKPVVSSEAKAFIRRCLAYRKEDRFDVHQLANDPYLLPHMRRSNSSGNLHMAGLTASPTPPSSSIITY
# UniProt P15056, sequence (whole entry, looked up): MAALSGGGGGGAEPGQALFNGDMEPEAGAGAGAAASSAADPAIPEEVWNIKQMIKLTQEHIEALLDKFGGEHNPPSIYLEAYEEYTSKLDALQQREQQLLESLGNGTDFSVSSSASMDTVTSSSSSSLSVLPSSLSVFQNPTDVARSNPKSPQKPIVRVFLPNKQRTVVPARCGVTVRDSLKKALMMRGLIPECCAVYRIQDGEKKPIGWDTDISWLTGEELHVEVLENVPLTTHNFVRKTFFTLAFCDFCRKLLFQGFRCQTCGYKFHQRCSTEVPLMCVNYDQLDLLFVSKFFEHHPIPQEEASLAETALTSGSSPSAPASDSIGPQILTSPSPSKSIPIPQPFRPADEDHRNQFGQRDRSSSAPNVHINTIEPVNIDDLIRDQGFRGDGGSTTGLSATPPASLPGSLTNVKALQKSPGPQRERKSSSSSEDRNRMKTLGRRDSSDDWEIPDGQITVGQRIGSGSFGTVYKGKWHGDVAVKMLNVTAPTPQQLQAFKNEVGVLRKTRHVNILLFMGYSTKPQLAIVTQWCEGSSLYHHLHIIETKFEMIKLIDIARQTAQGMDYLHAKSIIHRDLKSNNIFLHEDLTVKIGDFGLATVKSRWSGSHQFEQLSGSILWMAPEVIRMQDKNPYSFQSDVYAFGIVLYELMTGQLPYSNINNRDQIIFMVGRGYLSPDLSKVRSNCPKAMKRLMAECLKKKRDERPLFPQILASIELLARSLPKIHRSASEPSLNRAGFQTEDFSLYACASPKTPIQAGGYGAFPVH
# UniProt P51957, sequence (whole entry, looked up): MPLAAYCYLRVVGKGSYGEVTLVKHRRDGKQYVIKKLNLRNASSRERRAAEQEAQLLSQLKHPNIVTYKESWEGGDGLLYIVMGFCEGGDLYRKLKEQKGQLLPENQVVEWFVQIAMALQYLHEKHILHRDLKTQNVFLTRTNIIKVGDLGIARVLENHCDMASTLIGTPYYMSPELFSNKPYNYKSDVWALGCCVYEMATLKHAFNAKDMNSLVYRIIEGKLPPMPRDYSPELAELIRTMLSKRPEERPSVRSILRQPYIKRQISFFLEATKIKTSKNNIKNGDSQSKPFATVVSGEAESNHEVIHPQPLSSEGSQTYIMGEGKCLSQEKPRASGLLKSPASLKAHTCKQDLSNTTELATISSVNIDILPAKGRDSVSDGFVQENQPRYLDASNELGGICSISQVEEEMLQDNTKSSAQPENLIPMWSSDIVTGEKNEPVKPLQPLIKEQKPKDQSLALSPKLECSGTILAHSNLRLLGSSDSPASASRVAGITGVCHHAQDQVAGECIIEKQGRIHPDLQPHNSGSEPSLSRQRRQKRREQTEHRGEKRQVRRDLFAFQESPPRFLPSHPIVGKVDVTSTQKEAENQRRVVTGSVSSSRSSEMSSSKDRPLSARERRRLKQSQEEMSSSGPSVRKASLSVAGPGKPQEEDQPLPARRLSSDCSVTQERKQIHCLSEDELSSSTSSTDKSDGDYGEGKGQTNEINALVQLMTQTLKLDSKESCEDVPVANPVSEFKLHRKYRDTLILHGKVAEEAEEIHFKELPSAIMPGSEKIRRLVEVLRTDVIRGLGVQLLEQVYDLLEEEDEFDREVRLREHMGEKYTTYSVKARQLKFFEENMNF
# UniProt O75716, sequence (whole entry, looked up): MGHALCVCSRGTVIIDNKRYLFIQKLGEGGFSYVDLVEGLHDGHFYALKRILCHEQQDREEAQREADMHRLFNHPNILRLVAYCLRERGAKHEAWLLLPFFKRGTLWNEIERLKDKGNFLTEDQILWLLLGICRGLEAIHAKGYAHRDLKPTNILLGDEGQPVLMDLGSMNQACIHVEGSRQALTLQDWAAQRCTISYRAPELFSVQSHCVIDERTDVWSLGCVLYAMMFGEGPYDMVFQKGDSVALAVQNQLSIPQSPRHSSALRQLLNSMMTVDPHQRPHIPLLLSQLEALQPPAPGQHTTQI
# UniProt Q8TD08, sequence (whole entry, looked up): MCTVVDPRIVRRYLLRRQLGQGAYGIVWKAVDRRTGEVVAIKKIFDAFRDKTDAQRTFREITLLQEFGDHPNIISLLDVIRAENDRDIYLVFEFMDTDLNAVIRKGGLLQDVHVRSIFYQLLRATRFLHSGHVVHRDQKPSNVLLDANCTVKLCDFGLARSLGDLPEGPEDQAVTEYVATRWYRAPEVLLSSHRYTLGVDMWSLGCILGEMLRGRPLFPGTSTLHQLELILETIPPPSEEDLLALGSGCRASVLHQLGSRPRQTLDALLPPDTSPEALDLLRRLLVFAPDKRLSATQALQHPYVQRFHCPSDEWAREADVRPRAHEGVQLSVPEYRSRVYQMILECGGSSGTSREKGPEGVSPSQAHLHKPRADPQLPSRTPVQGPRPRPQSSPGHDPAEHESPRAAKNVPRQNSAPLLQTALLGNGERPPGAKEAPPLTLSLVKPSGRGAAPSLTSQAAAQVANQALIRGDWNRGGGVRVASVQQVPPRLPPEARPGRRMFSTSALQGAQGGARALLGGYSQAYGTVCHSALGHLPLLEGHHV
# UniProt P57058, sequence (whole entry, looked up): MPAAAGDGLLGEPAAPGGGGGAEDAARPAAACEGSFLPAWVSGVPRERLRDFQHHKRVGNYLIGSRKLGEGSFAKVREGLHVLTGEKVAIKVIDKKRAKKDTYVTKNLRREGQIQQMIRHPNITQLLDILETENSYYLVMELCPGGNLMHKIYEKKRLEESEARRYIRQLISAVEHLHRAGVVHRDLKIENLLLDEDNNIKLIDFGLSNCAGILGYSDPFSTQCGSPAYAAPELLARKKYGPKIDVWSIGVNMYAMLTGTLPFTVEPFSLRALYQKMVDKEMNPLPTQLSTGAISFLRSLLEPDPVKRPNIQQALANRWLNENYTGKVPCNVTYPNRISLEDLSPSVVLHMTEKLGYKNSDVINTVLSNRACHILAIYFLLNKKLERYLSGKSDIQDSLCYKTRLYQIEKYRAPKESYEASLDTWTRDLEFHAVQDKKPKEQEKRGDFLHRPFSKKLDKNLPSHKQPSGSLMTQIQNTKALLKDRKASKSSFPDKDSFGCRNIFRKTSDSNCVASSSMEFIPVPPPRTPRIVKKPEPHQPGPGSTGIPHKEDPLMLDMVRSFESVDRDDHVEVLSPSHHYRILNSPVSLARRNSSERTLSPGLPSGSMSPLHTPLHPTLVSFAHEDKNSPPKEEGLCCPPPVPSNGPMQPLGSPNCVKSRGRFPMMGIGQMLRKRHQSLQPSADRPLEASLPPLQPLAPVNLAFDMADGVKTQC
# UniProt Q15569, sequence (whole entry, looked up): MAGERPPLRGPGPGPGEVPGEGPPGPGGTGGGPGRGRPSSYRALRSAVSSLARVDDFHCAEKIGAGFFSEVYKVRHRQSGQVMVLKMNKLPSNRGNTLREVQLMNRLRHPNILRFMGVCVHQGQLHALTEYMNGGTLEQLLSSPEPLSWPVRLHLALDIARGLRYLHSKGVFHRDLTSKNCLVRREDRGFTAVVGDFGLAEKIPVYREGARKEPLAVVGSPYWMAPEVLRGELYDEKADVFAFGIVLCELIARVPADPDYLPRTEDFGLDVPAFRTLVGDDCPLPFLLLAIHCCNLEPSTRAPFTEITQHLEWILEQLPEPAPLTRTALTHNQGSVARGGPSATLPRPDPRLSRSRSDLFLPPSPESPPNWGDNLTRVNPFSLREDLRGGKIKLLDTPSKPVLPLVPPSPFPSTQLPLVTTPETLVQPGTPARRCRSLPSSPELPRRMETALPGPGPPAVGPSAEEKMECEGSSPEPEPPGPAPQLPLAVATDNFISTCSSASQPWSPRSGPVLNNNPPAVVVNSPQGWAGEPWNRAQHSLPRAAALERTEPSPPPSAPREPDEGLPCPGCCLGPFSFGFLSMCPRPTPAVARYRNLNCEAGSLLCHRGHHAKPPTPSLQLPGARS

# Sample 1
# Target: Eukaryotic initiation factor 4A-I (EIF4A1, Homo sapiens, UniProt P60842)
# UniProt P60842, sequence (whole entry, looked up): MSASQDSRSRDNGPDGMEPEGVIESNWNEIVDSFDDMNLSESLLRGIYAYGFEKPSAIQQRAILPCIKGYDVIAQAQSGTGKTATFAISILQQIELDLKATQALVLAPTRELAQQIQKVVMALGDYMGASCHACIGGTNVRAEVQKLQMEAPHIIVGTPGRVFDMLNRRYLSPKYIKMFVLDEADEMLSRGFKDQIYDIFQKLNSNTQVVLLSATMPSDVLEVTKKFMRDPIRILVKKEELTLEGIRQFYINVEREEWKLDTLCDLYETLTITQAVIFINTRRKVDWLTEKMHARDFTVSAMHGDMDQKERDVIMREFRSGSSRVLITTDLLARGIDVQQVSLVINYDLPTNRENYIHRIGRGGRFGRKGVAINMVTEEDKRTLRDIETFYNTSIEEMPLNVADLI
# Observed: RNA clamping
# Technique: fluorescence polarization
# Tested at: concentration not given
# Together with: FAM-labelled poly r(AG)8 RNA
# Direction: higher = more clamping
SMILES,fluorescence polarization change
CCCC1=N[C@@]2(O)[C@H](C(=O)OC)[C@@H](c3ccccc3)[C@]3(c4ccc(OC)cc4)Oc4cc(OC)cc(OC)c4[C@]23N1,63.4 mP
CO/N=C(\c1ccco1)[C@H]1[C@@H](O)[C@@]2(O)c3c(OC)cc(OC)cc3O[C@@]2(c2ccc(OC)cc2)[C@@H]1c1ccccc1,3.1 mP
COc1ccc([C@@]23Oc4cc(OC)cc(OC)c4[C@]2(O)c2nc(-c4ccccn4)[nH]c(=O)c2[C@H]3c2ccccc2)cc1,5.9 mP
COC(=O)[C@H]1C(=O)[C@@]2(NCCc3scnc3C)c3c(OC)cc(OC)cc3O[C@@]2(c2ccc(OC)cc2)[C@@H]1c1ccccc1,-12.1 mP
COC(=O)[C@@H]1[C@@H](c2ccccc2)[C@]2(c3ccc(OC)cc3)Oc3cc(OC)cc(OC)c3[C@@]23NC(c2cccnc2)=N[C@@]13O,33.4 mP
COC(=O)[C@@H]1[C@@H](c2ccccc2)[C@]2(c3ccc(OC)cc3)Oc3cc(OC)cc(OC)c3[C@@]23N2CCCCC2=N[C@@]13O,82.4 mP
COC(=O)[C@H]1[C@@H](O)[C@@]2(O)c3c(OC)cc(OS(=O)(=O)c4ccc(C)cc4)cc3O[C@@]2(c2ccc(OC)cc2)[C@@H]1c1ccccc1,23 mP
COc1ccc([C@]23Oc4cc(OC)cc(OC)c4[C@@]2(O)c2nc(-c4ccc(C)cc4)[nH]c(=O)c2[C@@H]3c2ccccc2)cc1,29.5 mP
COC(=O)[C@@H]1[C@@H](c2ccccc2)[C@]2(c3ccc(OC)cc3)Oc3cc(OC)cc(OC)c3[C@@]23NC(C2CCN(C(=O)OC(C)(C)C)CC2)=N[C@@]13O,41.2 mP
C#CCOc1cc(OC)c2c(c1)O[C@@]1(c3ccc(OC)cc3)[C@H](c3ccccc3)c3c(nc(-c4ccccc4)[nH]c3=O)[C@@]21O,7.9 mP
COC(=O)[C@@H]1[C@@H](c2ccccc2)[C@]2(c3ccc(OC)cc3)Oc3cc(OC)cc(OC)c3[C@@]23OC(c2cccnc2)=N[C@@]13O,-0.1 mP
COc1ccc([C@@]23Oc4cc(OC)cc(OC)c4[C@]2(O)[C@H](O)[C@H](C(=O)c2nccn2C)[C@H]3c2ccccc2)cc1,28.1 mP
COC(=O)C1=C(c2ccccc2)[C@]2(c3ccc(OC)cc3)Oc3cc(OC)cc(OC)c3[C@]2(O)C1=O,14.2 mP

# Sample 2
# Target: Beta-adrenergic receptor kinase 1 (GRK2, Homo sapiens, UniProt P25098)
# Observed: enzyme activity
# Action: inhibitor
# Tested at: 0.5 µM
# Relative to: control
# Target sequence (P25098 1-689): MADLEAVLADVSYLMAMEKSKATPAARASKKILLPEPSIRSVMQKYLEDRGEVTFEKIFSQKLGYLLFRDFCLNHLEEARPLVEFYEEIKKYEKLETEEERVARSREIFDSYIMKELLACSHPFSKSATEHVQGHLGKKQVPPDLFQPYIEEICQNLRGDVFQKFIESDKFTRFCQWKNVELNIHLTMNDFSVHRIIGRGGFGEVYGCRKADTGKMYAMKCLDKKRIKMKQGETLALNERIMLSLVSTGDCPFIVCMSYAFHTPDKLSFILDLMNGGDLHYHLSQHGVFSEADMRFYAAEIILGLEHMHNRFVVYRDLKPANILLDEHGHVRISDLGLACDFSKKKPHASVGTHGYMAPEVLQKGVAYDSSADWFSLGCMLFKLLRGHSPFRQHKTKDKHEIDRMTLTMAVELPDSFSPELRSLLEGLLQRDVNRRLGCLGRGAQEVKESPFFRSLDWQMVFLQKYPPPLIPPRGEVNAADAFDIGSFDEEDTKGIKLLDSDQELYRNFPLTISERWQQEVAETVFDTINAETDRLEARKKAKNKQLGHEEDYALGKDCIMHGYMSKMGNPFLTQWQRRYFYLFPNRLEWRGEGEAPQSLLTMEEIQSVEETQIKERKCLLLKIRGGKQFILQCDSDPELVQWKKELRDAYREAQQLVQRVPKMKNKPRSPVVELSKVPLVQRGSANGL
SMILES,remaining activity [%]
O=c1cc(-c2cccc3c2Sc2ccccc2S3)oc(N2CCOCC2)c1,79
O=C1c2ccccc2-c2n[nH]c3cccc1c23,99.4
Cc1nc2cc3nc(-c4cccs4)cnc3cc2n1C,83.7
COc1cc2c(cc1OC)-c1[nH]nc(Nc3cccc(F)c3)c1C2,93
Cn1nc2c3c(cccc31)C(=O)c1ccccc1-2,103
Cc1cn(-c2cc(NC(=O)c3ccc(C)c(Nc4nccc(-c5cccnc5)n4)c3)cc(C(F)(F)F)c2)cn1,95.8
CCN(CC)CCNC(=O)c1c(C)[nH]c(/C=C2\C(=O)Nc3ccc(F)cc32)c1C,94.7
Ic1cccc(CSc2nnc(-c3ccncc3)o2)c1,99.9
Cc1cc2ncc(-c3ccccc3)nc2cc1C,92.5
CN(C)C[C@H]1CCn2c(c(C3=C(c4cn(C)c5ccccc45)C(=O)NC3=O)c3ccccc32)C1,103
C[C@@H]1CCN(C(=O)CC#N)C[C@@H]1N(C)c1ncnc2[nH]ccc12,95.3
O=C(NC(NC(=S)Nc1ccc(F)c([N+](=O)[O-])c1)C(Cl)(Cl)Cl)C(c1ccccc1)c1ccccc1 (centres unmarked),79.5
Nc1cccc(-c2cc3c(Oc4cccc(O)c4)ncnc3[nH]2)c1,108

# Sample 3
# Structure (SMILES): O=C(O)[C@@H]1[C@@H](Cn2nnc3ccccc3c2=O)CC[C@H]1C(=O)c1ccc(OCCC2CCOCC2)cc1
# Technique: competition with immobilised ligand
# Tested at: 1 µM
target,observed,remaining binding
"WNK3 (Homo sapiens, UniProt Q9BYP7)",cell-free assay,100%
"CAMK1G (Homo sapiens, UniProt Q96NX5)",cell-free assay,100%
"Myosin-IIIa (MYO3A, Homo sapiens, UniProt Q8NEV4)",binding,93%
"PKN1 (Homo sapiens, UniProt Q16512)",cell-free assay,97%
"EGFR (Homo sapiens, UniProt P00533, del747-752/P753S)",cell-free assay,87%
"SGK3 (Homo sapiens, UniProt Q96BR1)",cell-free assay,100%
"ROCK2 (Homo sapiens, UniProt O75116)",cell-free assay,100%
"TESK1 (Homo sapiens, UniProt Q15569)",cell-free assay,94%
"STK16 (Homo sapiens, UniProt O75716)",cell-free assay,89%
"RIPK1 (Homo sapiens, UniProt Q13546)",cell-free assay,100%
"HUNK (Homo sapiens, UniProt P57058)",cell-free assay,100%
"BRAF (Homo sapiens, UniProt P15056)",cell-free assay,100%
"PLK2 (Homo sapiens, UniProt Q9NYY3)",cell-free assay,92%
"TSSK3 (Homo sapiens, UniProt Q96PN8)",cell-free assay,100%
"CDKL1 (Homo sapiens, UniProt Q00532)",binding,100%
"DCLK3 (Homo sapiens, UniProt Q9C098)",cell-free assay,100%
"Tyrosine-protein kinase ABL1, non-phosphorylated (ABL1, Homo sapiens, UniProt P00519, F317L)",cell-free assay,86%

# Sample 4
# Structure (SMILES): CO[C@@H]1[C@H](N(C)C(=O)c2ccccc2)C[C@H]2O[C@]1(C)n1c3ccccc3c3c4c(c5c6ccccc6n2c5c31)C(=O)NC4
# Action: inhibitor
# Tested at: 1 µM
target,observed,inhibition [%]
"NIM1K (Homo sapiens, UniProt Q8IY84)",enzyme activity,0
"TLK1 (Homo sapiens, UniProt Q9UKI8)",enzyme activity,0
"BMPR1B (Homo sapiens, UniProt O00238)",enzyme activity,6
"EPHB6 (Homo sapiens, UniProt O15197)",enzyme activity,0
"Tyrosine-protein kinase ABL1, non-phosphorylated (ABL1, Homo sapiens, UniProt P00519, H396P)",enzyme activity,5
"GRK4 (Homo sapiens, UniProt P32298)",enzyme activity,95
"STK38 (Homo sapiens, UniProt Q15208)",enzyme activity,21
"MAPK15 (Homo sapiens, UniProt Q8TD08)",enzyme activity,1
"CDK11A (Homo sapiens, UniProt Q9UQ88)",enzyme activity,0
"NEK4 (Homo sapiens, UniProt P51957)",enzyme activity,0
"NLK (Homo sapiens, UniProt Q9UBE8)",enzyme activity,7
"TEC (Homo sapiens, UniProt P42680)",enzyme activity,0
"JAK3 (Homo sapiens, UniProt P52333)",,100

# A few entries again (sample 4):
target,observed,inhibition [%]
"EPHB6 (Homo sapiens, UniProt O15197)",enzyme activity,0
"NEK4 (Homo sapiens, UniProt P51957)",enzyme activity,0
"MAPK15 (Homo sapiens, UniProt Q8TD08)",enzyme activity,1
